# Measurements from different studies.
# Each numbered part is a random draw from the data of one study; scales do not carry over between parts.
# UniProt P10721, sequence (whole entry, unmodified, looked up): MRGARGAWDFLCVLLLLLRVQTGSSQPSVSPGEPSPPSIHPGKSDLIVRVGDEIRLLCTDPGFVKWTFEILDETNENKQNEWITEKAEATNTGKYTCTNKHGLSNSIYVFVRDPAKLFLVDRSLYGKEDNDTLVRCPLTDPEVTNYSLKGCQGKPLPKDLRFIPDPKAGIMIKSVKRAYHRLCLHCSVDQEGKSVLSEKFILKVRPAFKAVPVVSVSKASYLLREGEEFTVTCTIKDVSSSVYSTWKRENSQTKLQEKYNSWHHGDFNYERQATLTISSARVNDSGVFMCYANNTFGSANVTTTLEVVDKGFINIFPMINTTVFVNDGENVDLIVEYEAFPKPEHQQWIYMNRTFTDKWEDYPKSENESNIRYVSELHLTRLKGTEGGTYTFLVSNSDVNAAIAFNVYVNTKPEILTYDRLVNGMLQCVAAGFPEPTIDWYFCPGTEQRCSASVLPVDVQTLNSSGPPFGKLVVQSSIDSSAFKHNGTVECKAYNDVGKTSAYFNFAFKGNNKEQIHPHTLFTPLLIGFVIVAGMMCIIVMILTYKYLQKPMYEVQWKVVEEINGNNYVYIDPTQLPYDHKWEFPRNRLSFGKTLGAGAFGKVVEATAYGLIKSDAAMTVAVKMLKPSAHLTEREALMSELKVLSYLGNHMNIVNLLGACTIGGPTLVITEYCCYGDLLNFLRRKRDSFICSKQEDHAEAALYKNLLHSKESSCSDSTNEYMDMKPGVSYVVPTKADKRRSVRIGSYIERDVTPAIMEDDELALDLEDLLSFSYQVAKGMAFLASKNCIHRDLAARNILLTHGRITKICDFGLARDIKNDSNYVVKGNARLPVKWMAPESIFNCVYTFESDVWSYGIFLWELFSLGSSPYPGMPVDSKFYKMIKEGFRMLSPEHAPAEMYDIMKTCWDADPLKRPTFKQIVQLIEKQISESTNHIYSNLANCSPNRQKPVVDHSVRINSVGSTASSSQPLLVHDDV
# UniProt Q92918, sequence (whole entry, looked up): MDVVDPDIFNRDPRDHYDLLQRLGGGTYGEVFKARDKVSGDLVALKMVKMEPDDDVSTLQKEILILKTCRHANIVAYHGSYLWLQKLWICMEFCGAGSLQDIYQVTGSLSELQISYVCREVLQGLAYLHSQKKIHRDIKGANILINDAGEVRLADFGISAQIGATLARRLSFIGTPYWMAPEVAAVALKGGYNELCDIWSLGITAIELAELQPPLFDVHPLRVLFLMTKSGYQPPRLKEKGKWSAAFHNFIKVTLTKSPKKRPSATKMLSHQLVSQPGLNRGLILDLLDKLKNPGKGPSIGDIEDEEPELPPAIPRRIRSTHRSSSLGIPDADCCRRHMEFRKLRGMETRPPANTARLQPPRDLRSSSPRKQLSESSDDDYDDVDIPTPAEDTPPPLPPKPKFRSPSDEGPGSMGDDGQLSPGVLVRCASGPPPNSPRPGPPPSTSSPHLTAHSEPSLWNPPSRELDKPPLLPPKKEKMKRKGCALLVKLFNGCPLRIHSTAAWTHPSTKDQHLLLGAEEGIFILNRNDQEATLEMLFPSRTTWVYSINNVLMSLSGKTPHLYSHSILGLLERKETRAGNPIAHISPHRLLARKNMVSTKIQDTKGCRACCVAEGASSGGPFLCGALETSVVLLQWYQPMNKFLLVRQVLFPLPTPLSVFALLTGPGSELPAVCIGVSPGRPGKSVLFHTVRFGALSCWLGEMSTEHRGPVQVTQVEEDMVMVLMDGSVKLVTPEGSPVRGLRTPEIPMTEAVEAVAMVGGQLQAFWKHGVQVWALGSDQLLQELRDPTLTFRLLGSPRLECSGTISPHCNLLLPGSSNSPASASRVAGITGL
# UniProt Q9P286, sequence (whole entry, looked up): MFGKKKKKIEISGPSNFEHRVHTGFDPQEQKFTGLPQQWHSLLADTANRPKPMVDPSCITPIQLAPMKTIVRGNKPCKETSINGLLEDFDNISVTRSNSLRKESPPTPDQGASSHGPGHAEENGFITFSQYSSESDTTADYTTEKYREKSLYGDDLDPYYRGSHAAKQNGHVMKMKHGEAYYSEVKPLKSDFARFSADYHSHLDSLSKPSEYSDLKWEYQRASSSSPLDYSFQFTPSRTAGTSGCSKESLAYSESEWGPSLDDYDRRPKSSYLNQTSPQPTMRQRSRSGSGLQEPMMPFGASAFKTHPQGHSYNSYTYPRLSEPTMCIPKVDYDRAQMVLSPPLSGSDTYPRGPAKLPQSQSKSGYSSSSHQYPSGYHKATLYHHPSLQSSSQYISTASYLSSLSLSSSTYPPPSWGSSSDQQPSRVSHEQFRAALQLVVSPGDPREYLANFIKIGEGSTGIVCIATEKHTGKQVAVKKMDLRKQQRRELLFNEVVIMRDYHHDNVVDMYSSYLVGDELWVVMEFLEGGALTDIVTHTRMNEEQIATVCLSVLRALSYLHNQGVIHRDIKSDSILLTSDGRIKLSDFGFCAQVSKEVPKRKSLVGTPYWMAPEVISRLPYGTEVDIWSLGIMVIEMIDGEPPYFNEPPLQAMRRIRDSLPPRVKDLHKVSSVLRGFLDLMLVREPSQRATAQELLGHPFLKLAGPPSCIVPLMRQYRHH
# UniProt Q9HCP0, sequence (whole entry, looked up): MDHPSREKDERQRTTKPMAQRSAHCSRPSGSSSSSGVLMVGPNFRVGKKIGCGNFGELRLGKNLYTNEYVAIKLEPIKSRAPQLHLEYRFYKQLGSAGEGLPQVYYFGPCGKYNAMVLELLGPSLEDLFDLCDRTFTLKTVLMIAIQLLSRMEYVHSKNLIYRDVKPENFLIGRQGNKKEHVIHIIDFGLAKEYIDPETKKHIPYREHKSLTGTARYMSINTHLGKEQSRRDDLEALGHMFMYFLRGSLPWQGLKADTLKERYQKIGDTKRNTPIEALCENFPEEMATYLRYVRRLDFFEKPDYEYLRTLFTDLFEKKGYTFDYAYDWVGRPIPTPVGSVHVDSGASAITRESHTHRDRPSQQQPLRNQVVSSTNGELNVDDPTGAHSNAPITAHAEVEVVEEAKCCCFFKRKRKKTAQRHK
# UniProt Q13546, sequence (whole entry, looked up): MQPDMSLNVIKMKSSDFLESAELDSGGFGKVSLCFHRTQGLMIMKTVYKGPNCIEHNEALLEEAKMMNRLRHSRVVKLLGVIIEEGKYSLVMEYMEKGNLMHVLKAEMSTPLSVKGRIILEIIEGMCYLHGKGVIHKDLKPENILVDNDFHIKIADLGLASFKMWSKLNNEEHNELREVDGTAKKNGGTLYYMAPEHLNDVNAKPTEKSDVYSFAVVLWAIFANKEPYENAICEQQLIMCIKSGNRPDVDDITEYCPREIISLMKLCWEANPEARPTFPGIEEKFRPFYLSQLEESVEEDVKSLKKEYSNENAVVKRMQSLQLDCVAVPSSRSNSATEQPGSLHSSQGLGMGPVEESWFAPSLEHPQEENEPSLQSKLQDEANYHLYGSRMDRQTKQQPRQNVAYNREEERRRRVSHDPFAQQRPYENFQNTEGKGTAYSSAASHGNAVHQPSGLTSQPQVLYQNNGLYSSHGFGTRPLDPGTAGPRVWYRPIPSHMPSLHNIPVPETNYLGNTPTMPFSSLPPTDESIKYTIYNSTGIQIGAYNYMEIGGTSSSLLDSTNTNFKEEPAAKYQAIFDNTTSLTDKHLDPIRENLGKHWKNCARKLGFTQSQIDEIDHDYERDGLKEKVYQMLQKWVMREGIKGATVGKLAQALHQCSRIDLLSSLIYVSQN
# UniProt O94768, sequence (whole entry, looked up): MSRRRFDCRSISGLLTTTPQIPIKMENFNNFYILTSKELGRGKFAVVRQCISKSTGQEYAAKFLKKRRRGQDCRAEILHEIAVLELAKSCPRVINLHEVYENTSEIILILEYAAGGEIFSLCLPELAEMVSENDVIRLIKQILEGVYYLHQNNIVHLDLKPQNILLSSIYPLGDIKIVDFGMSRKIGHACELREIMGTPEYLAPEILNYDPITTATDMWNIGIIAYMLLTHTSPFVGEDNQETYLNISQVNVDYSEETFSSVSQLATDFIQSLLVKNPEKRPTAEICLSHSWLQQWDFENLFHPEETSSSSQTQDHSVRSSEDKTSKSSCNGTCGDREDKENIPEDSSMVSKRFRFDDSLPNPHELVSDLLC

# Block 1 — method: RNA Bind-n-Seq; form: RNA; medium: in vitro; concentration: not given; notes: 4-mer, random 30-nt RNA, single round; added: RocA, ADP, phosphate; reference: input library; reading: higher = stronger binding
# Target: ATP-dependent RNA helicase DDX3X, helicase core (DDX3X, Homo sapiens, UniProt O00571, residues 132-607)
# UniProt O00571, sequence (132-607, looked up): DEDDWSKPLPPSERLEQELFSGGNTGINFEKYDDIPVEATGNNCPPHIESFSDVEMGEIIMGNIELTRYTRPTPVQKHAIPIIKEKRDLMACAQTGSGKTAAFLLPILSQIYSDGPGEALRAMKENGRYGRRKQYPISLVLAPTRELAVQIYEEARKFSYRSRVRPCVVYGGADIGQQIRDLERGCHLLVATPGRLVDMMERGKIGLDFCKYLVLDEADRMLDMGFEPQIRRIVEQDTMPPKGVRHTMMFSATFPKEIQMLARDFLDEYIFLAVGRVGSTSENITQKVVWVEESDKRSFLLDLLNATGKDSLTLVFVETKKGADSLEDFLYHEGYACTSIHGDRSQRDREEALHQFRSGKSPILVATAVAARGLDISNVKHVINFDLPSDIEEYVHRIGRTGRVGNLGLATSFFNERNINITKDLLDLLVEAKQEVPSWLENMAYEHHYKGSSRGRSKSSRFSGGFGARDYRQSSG
Oligonucleotide,4-mer enrichment [fold]
GAGU,2.55
CUAU,0.724
GGCA,0.838
GGCG,1.11
UAGA,1.05
CAUC,0.676
UGCA,0.766
UUCG,0.839

# Block 2 — read-out: cell-free assay; method: competition with immobilised ligand; concentration: 1 µM
# Compound: Cc1nc(Cc2cccc(C(F)(F)F)c2)sc1-c1ccc(C(N)=O)nc1
target,remaining binding
"CSNK1A1 (Homo sapiens, UniProt P48729)",99%
"LATS2 (Homo sapiens, UniProt Q9NRM7)",90%
"TEK (Homo sapiens, UniProt Q02763)",80%
"MAP4K1 (Homo sapiens, UniProt Q92918)",100%
"PAK5 (Homo sapiens, UniProt Q9P286)",97%
"PKN1 (Homo sapiens, UniProt Q16512)",98%
"MET (Homo sapiens, UniProt P08581)",63%
"RIPK1 (Homo sapiens, UniProt Q13546)",91%
"ANKK1 (Homo sapiens, UniProt Q8NFD2)",95%
"FGFR4 (Homo sapiens, UniProt P22455)",100%
"DYRK1A (Homo sapiens, UniProt Q13627)",67%
"PRPF4B (Homo sapiens, UniProt Q13523)",70%
"KIT (Homo sapiens, UniProt P10721)",95%
"CSNK1G1 (Homo sapiens, UniProt Q9HCP0)",97%
"FLT3 (Homo sapiens, UniProt P36888, R834Q)",92%
"MAP3K14 (Homo sapiens, UniProt Q99558)",100%
"KIT (Homo sapiens, UniProt P10721, A829P)",96%
"PIK3C2B (Homo sapiens, UniProt O00750)",82%
"STK17B (Homo sapiens, UniProt O94768)",79%
"SGK3 (Homo sapiens, UniProt Q96BR1)",100%
"FLT3 (Homo sapiens, UniProt P36888, N841I)",86%

# Block 3 — method: RNA Bind-n-Seq; form: RNA; medium: in vitro; concentration: 100 nM; reference: input RNA pool; reading: higher = stronger binding
# Target: RING finger protein unkempt homolog, zinc fingers 1-6, SBP tag (UNK, Homo sapiens, UniProt Q9C0B0, residues 30-357)
# UniProt Q9C0B0, sequence (30-357, looked up): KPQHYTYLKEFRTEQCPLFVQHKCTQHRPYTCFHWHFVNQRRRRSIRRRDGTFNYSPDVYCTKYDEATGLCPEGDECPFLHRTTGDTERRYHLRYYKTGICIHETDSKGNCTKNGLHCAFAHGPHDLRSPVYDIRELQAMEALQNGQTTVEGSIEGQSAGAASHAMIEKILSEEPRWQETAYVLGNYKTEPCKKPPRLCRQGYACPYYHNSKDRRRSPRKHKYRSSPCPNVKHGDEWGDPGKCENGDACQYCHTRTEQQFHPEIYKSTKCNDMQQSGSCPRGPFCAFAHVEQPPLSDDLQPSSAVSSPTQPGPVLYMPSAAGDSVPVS
# Notes: RNA with constant flanks, vertebrate orthologous sites, ends assumed
# Shared flanks, not repeated: GGGAGUUCUACAGUCCGACGAUC … CAACAGAGGAUUGAGCAUCA
Oligonucleotide,bound/input enrichment [ratio]
UUCUGCUGAUGCACUAUAUCUGAGGCAUACGCUAAACUAAGUGUAAUUUAGAAGAUUUUAUAGUUUAUUUUGAUGAGGUGAGAAUUAUCCAGAUUGUAGUCGGGAAUAUAUUGUCUUUUA,1.27
CGGGGUGCACCUGUGGGGCGCUGCUGGCCGCUUAGCGUCGUUUGAUUUGUGACCUUGACAUAAUAGAUAGGCUUGUGGUUUUUUUUAAUUUAAAGAUAUUAAGACUUAAUUCACUAAAAU,0.592
AAAGUCCUGGCUGCCGGAACGCCUCAGUGAGGUAAAGUCUCUUGGCGUUUUGACUGGGACCAGCCCAGCCAUUCUCAGCCUCUCGACAUGUAAUUUCAUUUCUUUUACGAAAGCUCGUCU,0.124
AGUAUCCCAGUUGUACCGUGUUGGGUUGGCAUUGUACAGAAAUUAACAGCCAUAUUGGUCUAGAUACGUUAAACAUAAUUUUUUUCCAUUUGUACAGGGGUAACACACUGUAUUAAAUAU,1.23
CACCCCUUGAGACAGGGAGUUGAGGGGGGGAGCUCAGGAUGACCCUCAGCUGUUCCAAUCCAGUAUUUUUUUUCUUCCUUUUUAAAAAUACUGUAUUUAUUAUGACGAUGGUGACCCCCC,0.367
UCAUUGUACUGCAAAAAUUACCCUAGUUUUGAACUAGCCACAAUGAUAACUAGUCUGUGCUAGUAGGAUCAUUGACUAUUACCUUUUAAAUUACCUGCUUUGUCUGAUACCUGAAACCAA,1.96
CUGUUGUGUGAAAUAUGUCUACCAAGAGAAGUAUCACACCAUAAACAUUGUCAAAUAAUUUAGCUACAAUCUUCUUAGAUACCAAAUCAUAUGUCAAGCAUUUAAAGUGAAUUUGAGAUG,0.673
UUACAGUCAUUGAUGGACUCUAUUUUUUUAUUAUUACUUGGACCUUGGUCGUUUUUAUACUAGCAAAAUGUCUUGUUUUGAUUUGUGUUCUUUUGGUUUUUGUUUUGUUUUUAUUUUUUG,1.78

# Block 4 — species: mouse; medium: microsomes or S9; concentration: 2 µM; time: 0.5 h
Structure (SMILES),remaining compound
CC(=O)OCCNc1cnc(Cl)cc1Cn1c(C(=O)c2cc(C)cc(C)c2)c(C(C)C)c(=O)[nH]c1=O,0.212%
O=C(O)c1ccc(Nc2nc(-c3ccc(Cl)cc3)cs2)cc1,80.2%
Cc1c(O)ccc2c(CSc3n[nH]c4nc5ccccc5n34)cc(=O)oc12,2.01%

# Block 5 — method: RNAcompete; form: RNA; medium: in vitro; concentration: 20 nM; notes: 7-mer, probes averaged, single round; reference: mean of 7-mers; reading: higher = stronger binding
# Target: PABPC1L2, full length, GST fusion (mouse, UniProt A0ABA7IW68)
Oligonucleotide,7-mer Z-score
UGUCAUU,-0.333
GAUGAAG,-0.0754
CUUAGAA,0.129
CUGGCAG,-0.126
CUCUCAC,-0.431
CCUCCUU,-0.434
UUUCCAA,-0.266
AGCCGCU,-0.318

# For quick reference, copied from above (block 5):
Oligonucleotide,7-mer Z-score
CUCUCAC,-0.431
CCUCCUU,-0.434
UUUCCAA,-0.266
AGCCGCU,-0.318
